Experimental data collected from several papers.
Numbered parts are unrelated; each lists some results of a single study. Changes are numbered by the printed parent chain.

Sample 1
Target: RNA binding protein fox-1 homolog 2, RRM domain, GST-SBP tag (RBFOX2, Homo sapiens, UniProt O43251-10, residues 100-194)
Method: RNA Bind-n-Seq
Form: RNA
Medium: in vitro
Concentration: 365 nM
Notes: natural RNA segment, single round, ends assumed
Relative to: no-protein control
Reading: higher = stronger binding
Endpoint: RBNS enrichment (R)
All sequences stand within: GGGAGUUCUACAGUCCGACGAUC … UGGAAUUCUCGGGUGCCAA
Construct (chain): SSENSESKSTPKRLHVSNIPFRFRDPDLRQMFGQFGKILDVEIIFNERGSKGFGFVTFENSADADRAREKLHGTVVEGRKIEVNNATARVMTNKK
Strand = UUGAAUGCAUACUAAACUGUAAAAAAAAUUUAUUUACAGCAUUGAAAAUUCAGAAGUUAAUGGUUUUUUGUAAGCACAAAAGAAGUAUGGUAGAAAUUAAUCUUAACAAG; result = 0.951
Strand = CCCCUCCUCAUCCUGCACCCCUUCCAUCCCACCUUCCCUUUCAAUAAACAGCUGGGAUGGAUACUGACUUUGUUUCCUUUCUCCCUGGCCACUGGGGCGUGGGGAGGAGA; result = 0.58
Strand = AAACCAGAACAGUAGAAGUAGCCAAUCGUAAGACCUGAAGACAUUUUGAAUGUCCCACUGGACUAACCUUUCUUUUGAUGUGUGUUUUUAGUUUAGAAGUGCUAUAUUCC; result = 0.377
Strand = UGCUGCUCAUGAAGAAGUGCACAAGGCACAAAUGUGUACACUUCCCAUGGGACCACAGACCCAGCUCAGCUCUGUUGAAGACCAAGCACAAAGGCCUUGAAGAGUGGACA; result = 0.471
Strand = AUUUCUGUUUCUGCUUCUCCCUUGGCCAGUGUCAUUGAUGCAGAUCAUUGCAUACAACAGCACAGCAAAUUGCGCCAAGUCAGUGUGUGAAUGGGAAUUAGCAAUGCACG; result = 3.73
Strand = CCUCAGAUCAGCCCCUUAAAAUGAGUUCUAGAGCAGGUCUUCUGUUCCAGAAGGGGAGAAGCAUAGAGGGCCUGUGAGCUCACGUGUGUUCUUUGUCAUAGGGGUGAAAA; result = 0.837
Strand = ACCCACCAGCACCCCAGCCCUCCAGGGUCAUCUCAGCACCCAGGCCUCUCCCCAUGGCUGGGGCAGCCCCGCCCCCUCCCUGGGUGCAUCUGCCCUCUGAGUUCUUUCUG; result = 0.482
Strand = GAGGCAUUCAUACAGAGCUGCAGUUAGGCAGAGUUGCGGGGCUAGAAGCAGAAGCAGACAUCCCAUUGCACCAGGACAGAGUACGGGACUUCACUCGGCAAGCAGCCCUG; result = 0.562
Strand = CCUAGUUUUGUAUCUUGUUGUAUGACUGCCAUGAGUUCCACCAGAAAGCCACUCUAUUUUGGUCUCUGUGACAUUUUAAAUGCGUGACAGAAGUGAGCAAAUAAAGUGAG; result = 0.472
Strand = GUUGGAGGAUGAGAGCUCCUGAGGGGCAGAGGAGCAGAGAUGCAUCAGCUCGCCUGGGACUGGCUCUGUGAUAAAAAGACCCCUCCCGCUGGGUUUUCAGACCCCAUGUU; result = 0.437
Strand = GACUACUCAAGCUCUGUUUACAGAAGAAAAUUGAAUGGCGAGGGUGUGGCCAUAUGAACUGACUAGAUGGCUAAUAUGGACACUUUGGGUAUUUCUAAUGCCUGUUCAGG; result = 0.337
Strand = AACGAAAUUACCAUACUCUUAAACAGACCUGUUAAAUUAAUGUGGACUGGCAGUUAACUUGUGCAACUCACUGAAACCAAAAUAUUGAAGAAGUCCCACAUGGAAGACGC; result = 0.385

Sample 2
Target: Histone acetyltransferase KAT6A, winged helix 2, GST fusion (KAT6A, Homo sapiens, UniProt Q92794, residues 85-181)
Method: protein binding microarray
Form: double-stranded DNA, one strand shown
Medium: in vitro
Concentration: not given
Notes: 8-mer, flanks averaged, mean of 2 arrays, mostly near background
Relative to: not given
Reading: higher = stronger binding
Endpoint: E-score
Target sequence (chain): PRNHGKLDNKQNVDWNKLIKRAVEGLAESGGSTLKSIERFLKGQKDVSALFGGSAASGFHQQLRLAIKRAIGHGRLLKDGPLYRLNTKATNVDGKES
Strand = CGTAAAAA; result = 0.0263
Strand = AACACCCG; result = 0.0794
Strand = CTTACAAG; result = 0.0258
Strand = ATGAAAAT; result = -0.0383
Strand = GAGGGAAA; result = 0.0914
Strand = CCGGAGCC; result = 0.0924
Strand = GAAATGAC; result = -0.00234
Strand = GGAAGGAC; result = 0.0227
Strand = CCAGATGA; result = -0.0477
Strand = AGTTTGAA; result = -0.0182
Strand = AGTTGGTG; result = 0.0127
Strand = CCATAGGC; result = 0.0313
Strand = TAATTACA; result = 0.043
Strand = GTCGCCAC; result = -0.0136
Strand = CTCCAAGA; result = 0.065
Strand = ACGTAGCT; result = -0.0897
Strand = ACCTATGG; result = 0.0164

Sample 3
Target: Sal-like protein 4, full length isoform A (SALL4, Homo sapiens, UniProt Q9UJQ4, residues 1-1053)
UniProt Q9UJQ4, sequence (whole entry, looked up): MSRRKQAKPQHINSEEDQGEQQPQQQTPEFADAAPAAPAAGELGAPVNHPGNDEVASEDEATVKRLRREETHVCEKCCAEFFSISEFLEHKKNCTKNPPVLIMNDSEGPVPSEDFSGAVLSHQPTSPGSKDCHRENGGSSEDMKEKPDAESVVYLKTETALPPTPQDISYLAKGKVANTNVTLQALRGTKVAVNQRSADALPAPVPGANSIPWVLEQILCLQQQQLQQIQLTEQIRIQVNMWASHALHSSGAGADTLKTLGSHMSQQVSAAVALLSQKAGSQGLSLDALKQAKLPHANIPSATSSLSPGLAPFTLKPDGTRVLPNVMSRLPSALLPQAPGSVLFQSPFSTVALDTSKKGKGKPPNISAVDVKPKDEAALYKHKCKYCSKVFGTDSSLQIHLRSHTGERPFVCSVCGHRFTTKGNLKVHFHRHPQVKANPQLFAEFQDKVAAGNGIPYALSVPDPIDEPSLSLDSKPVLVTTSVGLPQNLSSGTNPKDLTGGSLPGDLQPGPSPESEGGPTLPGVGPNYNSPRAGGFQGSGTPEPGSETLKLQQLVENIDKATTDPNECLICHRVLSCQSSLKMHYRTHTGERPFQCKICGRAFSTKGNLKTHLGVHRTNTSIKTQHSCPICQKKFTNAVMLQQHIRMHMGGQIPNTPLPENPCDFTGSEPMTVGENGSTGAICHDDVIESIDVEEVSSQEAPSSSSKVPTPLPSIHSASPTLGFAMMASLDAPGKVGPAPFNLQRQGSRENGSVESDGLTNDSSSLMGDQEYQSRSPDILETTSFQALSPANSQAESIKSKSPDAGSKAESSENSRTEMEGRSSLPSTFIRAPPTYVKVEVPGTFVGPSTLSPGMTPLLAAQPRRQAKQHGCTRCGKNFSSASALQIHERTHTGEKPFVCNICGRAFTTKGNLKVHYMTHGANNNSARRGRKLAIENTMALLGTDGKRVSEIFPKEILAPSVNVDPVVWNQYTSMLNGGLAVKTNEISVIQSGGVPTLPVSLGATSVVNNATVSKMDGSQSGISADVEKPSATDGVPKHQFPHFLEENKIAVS
Method: universal PBM
Form: double-stranded DNA, one strand shown
Medium: in vitro
Concentration: 600 nM
Notes: 8-mer, flanks averaged, mean of replicates
Reading: higher = stronger binding
Endpoint: E-score
Strand = ACGTGACT; result = 0.0154
Strand = AGCTCTTC; result = -0.121
Strand = GACAAGAA; result = 0.154
Strand = GTCATCAC; result = 0.0166
Strand = CTTCCTTC; result = -0.0445
Strand = CGTTAAGA; result = 0.00182
Strand = CGGTAAGC; result = -0.136
Strand = AAGATCTA; result = -0.000365
Strand = AGGGGCCG; result = -0.347
Strand = GCAATAGC; result = -0.078
Strand = GGCCGACC; result = -0.391
Strand = ACAGTTTG; result = 0.0206
Strand = CCGGCCGC; result = -0.416
Strand = AGTGACGA; result = 0.0898
Strand = ATCAAGCG; result = 0.0169
Strand = CAGCCCGC; result = -0.37
Strand = AAATGAAT; result = 0.369
Strand = AAGCGAAT; result = 0.0326
Strand = ATTGCCAA; result = 0.0573
Strand = ATTCGGAG; result = -0.0677
Strand = ACAGTAAT; result = 0.246
Strand = ACGCCTCG; result = -0.257
Strand = AGTGAGAC; result = -0.132
Strand = ATAGTGTA; result = 0.333
Strand = GTTGCAAA; result = 0.0972

Sample 4
Target: Fragile X messenger ribonucleoprotein 1, C-terminal low-complexity region (Fmr1, Mus musculus, UniProt P35922)
Method: RNA Bind-n-Seq
Form: RNA
Medium: in vitro
Concentration: 200 nM
Notes: whole 134-nt RNA, ends assumed
Together with: 150 mM KCl
Relative to: input library
Reading: higher = stronger binding
Endpoint: log2 enrichment
All sequences stand within: GGGAGUUCUACAGUCCGACGAUC … UGGAAUUCUCGGGUGUCAAGG
Strand = UGGGAGGUUGAUUUUGUUUAUUUUUUUAGCUCAUUUCCAGGGGUGGGAAUUUUUUUUUAAUAUGUGUCAUGAAUAAAGUUGUUUUUGAAA; result = -0.0103
Strand = ACCAUGCAGGUGGGCAUCUUUGGGAAGUGGGGCAAGGGGGGGACAGGGAGGGGGGUAACACUUUGGGAACAGGUGGUCCCAGGUCGUUUC; result = 0.709
Strand = AUCAUUUCAUUUUUAUAAUUAUACAUUAGACAUUGGCACUUGUGUAAAACUGUCCCUGCAGAUUGAGCAGGAAGUAAAAACAAAUGGAAA; result = 0.00914
Strand = AGUCCUGUGCUACACAUCGUAUGUACCGAAUCGGGAAAGGGUUUUUUUGGGUUUGGGAAAGUAUUAUGUUACGCCGUUCGGAUCUGCACU; result = 0.226
Strand = UAACUUUAGAGGAGGAUCUGAUGGAUAUGGAAGUGGACGUGGAUUUGGGGAUGGCUAUAAUGGGUAUGGAGGAGGACCUGGAGGUGGCAA; result = 0.315
Strand = UCAAGUCCUGUGCUACACAUCGUAUGUACCGAAUCGGUUUUUGGAGGUUUUUGGAAAGUAUUAUGUUACGCCGUUCGGAUCUGCACUUCC; result = -0.418
Strand = UCAAGUCCUGUGCUACACAUCGUAUGUACCGAAUCGGGCCCGGGCCCGGCCCGGGAAAGUAUUAUGUUACGCCGUUCGGAUCUGCACUUC; result = -0.891
Strand = GUCCUGUGCUACACAUCGUAUGUACCGAAUCGGGCCCCCCGGCCCCCCGGGCCCCCCGGAAAGUAUUAUGUUACGCCGUUCGGAUCUGCA; result = -0.176
Strand = UCCUGUGCUACACAUCGUAUGUACCGAAUCGGGUUUUUUGGGUUUUUUGGUUUUUUGGGGAAAGUAUUAUGUUACGCCGUUCGGAUCUGC; result = -0.0969
Strand = AGUUCUAUCUCUGGGGUGACUGCCGCAUAUAACCGAGAACAGCUGUGGCUGGCCAAUGAAGGCCUGAUCACCAGGCUGCAGGCUCGCUGC; result = -0.551
Strand = GUCCUGUGCUACACAUCGUAUGUACCGAAUCGGGUUUUUUUGGGAAAAAGGGAAAGGGAAAGUAUUAUGUUACGCCGUUCGGAUCUGCAC; result = -0.403
Strand = UGAAAUGUUUUUUUCUCUGUCUUCUUUCAGGUCUUUGUUGAGUAUGCAAAUGCUGGUGAUUCCAAAGCUGCGCAGAAAUUACUGACUGGA; result = -0.575
Strand = UGGGGAGACUACGAUGACAGCGCCUUCAUGGAGCCCAGGUACCACGUCCGUGGAGAAGAUCUGGACAAGCUCCACAGAGCUGCCUGGUGG; result = -1.23
Strand = AGUCCUGUGCUACACAUCGUAUGUACCGAAUCAAAUUUUUAAAUUUAAACCCCCAAAAAAGUAUUAUGUUACGCCGUUCGGAUCUGCACU; result = -0.0181

Sample 5
Target: CCNB1, cyclin fold, Cln2 fusion (human)
Method: yeast growth competition, sequencing
Medium: yeast
Notes: weak parent motif
Relative to: not given
Reading: higher = stronger binding
Endpoint: normalised enrichment score
Parent: GMNC docking peptide (human); KNAKRNLSSEFAN
Substitution = KNAKPNLSSEFAN [R5P]; result = -0.32
Substitution = KNAKRNLSHEFAN [S9H]; result = 0.115
Substitution = KNAKRFLSSEFAN [N6F]; result = 0.0615
Substitution = KNIKRNLSSEFAN [A3I]; result = 0.407
Substitution = KNAKRNLSSEFKN [A12K]; result = 0.00658
Substitution = KNAKRNLLSEFAN [S8L]; result = 0.551
Substitution = KNAKRNLSLEFAN [S9L]; result = -0.0521
Substitution = KNPKRNLSSEFAN [A3P]; result = -0.591
Substitution = KNAKINLSSEFAN [R5I]; result = 0.48
Substitution = KNAKRNLSIEFAN [S9I]; result = -0.166
Substitution = KNAKRNLSSEFFN [A12F]; result = 0.055
Substitution = KNAKRNLSSRFAN [E10R]; result = 0.747
Substitution = KNAKRCLSSEFAN [N6C]; result = -0.0607
Substitution = KNAKRNRSSEFAN [L7R]; result = 0.419
Substitution = KNAKRNLSSEEAN [F11E]; result = -0.0212
Substitution = KNQKRNLSSEFAN [A3Q]; result = -0.16
Substitution = KNAKRNDSSEFAN [L7D]; result = 0.674
Substitution = KPAKRNLSSEFAN [N2P]; result = 0.611
Substitution = KNAKRNLSSDFAN [E10D]; result = -0.134
Substitution = KNAQRNLSSEFAN [K4Q]; result = 0.0738
Substitution = KNAKTNLSSEFAN [R5T]; result = 0.189
Substitution = KNAKRNLSSHFAN [E10H]; result = 0.329
Substitution = KNAKRNLSTEFAN [S9T]; result = 0.225
Substitution = KNAKRNTSSEFAN [L7T]; result = 0.649
Substitution = KNRKRNLSSEFAN [A3R]; result = 0.199

Mixed results
Method: cross-linking MS
Molecule = SEC61B (Homo sapiens, UniProt P60468); partner = SEC61A1 (Homo sapiens, UniProt P61619); notes = hits only; endpoint = interaction screen; result = cross-linked
Molecule = NAA10 (Homo sapiens, UniProt P41227); partner = NAA15 (Homo sapiens, UniProt Q9BXJ9); medium = cell fractions; together with = DSSO; endpoint = cross-linked residues; result = K165 to K286
Molecule = MTREX (Homo sapiens, UniProt P42285); partner = NOP53 (Homo sapiens, UniProt Q9NZM5); medium = cell fractions; together with = DSSO; endpoint = cross-linked residues; result = K748 to K127
Molecule = TRIP12 (Homo sapiens, UniProt Q14669); partner = IMMT (Homo sapiens, UniProt Q16891); medium = cell fractions; together with = DSSO; endpoint = cross-linked residues; result = Y918 to K211

Excerpt of the above (sample 3):
Strand = GTCATCAC; result = 0.0166
Strand = CTTCCTTC; result = -0.0445
Strand = CGTTAAGA; result = 0.00182
Strand = CGGTAAGC; result = -0.136
Strand = AAGATCTA; result = -0.000365
Strand = AGGGGCCG; result = -0.347
Strand = GCAATAGC; result = -0.078
Strand = GGCCGACC; result = -0.391
Strand = ACAGTTTG; result = 0.0206
Strand = CCGGCCGC; result = -0.416
Strand = AGTGACGA; result = 0.0898
